Results of several laboratories.
Every numbered part comes from another study and shows a few of its results, in no order.

Set 1
Target: PABPC1L2, full length, GST fusion (mouse, UniProt A0ABA7IW68)
Technique: RNAcompete
Molecule type: RNA
Matrix: in vitro
Concentration: 20 nM
Notes: 7-mer, probes averaged, single round
Relative to: mean of 7-mers
Direction: higher = stronger binding
Quantity: 7-mer Z-score
Residues (chain): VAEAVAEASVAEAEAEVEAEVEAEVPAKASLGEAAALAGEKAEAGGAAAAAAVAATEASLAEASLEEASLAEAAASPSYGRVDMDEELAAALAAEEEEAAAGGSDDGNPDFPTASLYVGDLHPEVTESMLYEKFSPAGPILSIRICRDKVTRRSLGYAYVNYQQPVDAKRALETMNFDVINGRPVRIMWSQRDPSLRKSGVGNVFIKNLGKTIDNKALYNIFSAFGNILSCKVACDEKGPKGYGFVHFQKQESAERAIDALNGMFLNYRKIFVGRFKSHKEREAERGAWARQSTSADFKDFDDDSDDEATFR
CCCUCUG: -0.353
UAUCACA: -0.0826
GCGCACC: -0.115
UGGGCAA: 0.514
AUGAGGU: -0.0101
CUUAAGA: -0.2
GCUCGAU: -0.175
GUGAGUA: -0.244
UUCUUAG: -0.293
CCGUCAU: -0.258
UAAAAGC: 1.39
GCACACU: -0.146
GUCAGCG: -0.157
GCCAGAU: -0.121
AGGUGUA: 0.135
ACACCUU: -0.266
GUAAUUA: -0.142

Set 2
Target: RNA binding protein fox-1 homolog 2, RRM domain, GST-SBP tag (RBFOX2, Homo sapiens, UniProt O43251-10, residues 100-194)
Technique: RNA Bind-n-Seq
Molecule type: RNA
Matrix: in vitro
Concentration: 365 nM
Notes: natural RNA segment, single round, ends assumed
Relative to: no-protein control
Direction: higher = stronger binding
Quantity: RBNS enrichment (R)
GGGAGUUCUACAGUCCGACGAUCCAGAAGAUGGGCUGCCUGUGGUCAGGACAGGGCAUACCAGUCUGGACUCCACCUUCCCAGACACCUACUUUAAGGACCUGUGGAAACUGGGUGAUCCAAUUAUAGGGCUGUGGAAUUCUCGGGUGCCAA: 0.376
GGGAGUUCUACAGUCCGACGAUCGCCCUCCCUGGUGCGUCUGCGCUGGGGCCCUCAGUGCUCGGGGCCUUGGGGUGCAUGGGUGCCGCCCUGGGCAGCUAGAGUGUCUCAGCCCGGUGCUGGGCCUGGCCGAGUGGAAUUCUCGGGUGCCAA: 12.4
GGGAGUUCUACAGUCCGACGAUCCUACUUCUAGCUGAUCAUUCUUUUCCCAACAUAUAUUUACAAAUUUACCAAAUUUUACCUAGAAUUUUAGGACCAAAUGGUUCUCACUCUUUAUGCUGCAAAGACCUGGAUGGAAUUCUCGGGUGCCAA: 0.588
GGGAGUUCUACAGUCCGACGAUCCAAGCACAAGUUCUCUAUAUCACUUGUUUUUUGUUGUUGUUGUUGUUGUCGUCGUUGUUUUGAGACGGAGUCUUGCUCAGGUGCCCCGGAGUGCAGUGGUGCAAUCUCAGUGGAAUUCUCGGGUGCCAA: 3.64
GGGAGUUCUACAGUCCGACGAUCUUUUCAGUGAUCAGAAGCAGCAGUUAUUUGAGUGUAUGAAUGGAAUGAUGAUCACUGUGCUAUAAUGUACUGAAACCACCAUAUUACAGAAAUAUUUACUACAUAUUUUCUGGAAUUCUCGGGUGCCAA: 7.41
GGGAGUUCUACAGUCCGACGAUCUUUGAAGUCUGUACUUGAAAUCUGUCUGGAAGUGUUUCCUUGUUAGUUUUGGGUUUCUCCCCUGUCCCAAGGCUCAGAGUCUUCAUCUCCUACGUGACUGACUACAGUUGUGGAAUUCUCGGGUGCCAA: 0.469
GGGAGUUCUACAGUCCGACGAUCGUCUUCCCUGCUGUAGAGAUGUUCCUGUGCACCUGAGGAGCCUCCUGCCUGCCGUCCUUGCGUCCACCAUCCCUCUGCCAGGAUGCUGCUCUUGCACCAAGUGCCUUCUGUGGAAUUCUCGGGUGCCAA: 2.13
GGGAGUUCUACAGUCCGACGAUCUUUAAAAUUUAACAGCAAUCAGCUAACAGGCAAAUUAAGAUUUUUACUUCUGGCUGGUGACAGUAAAGCUGGAAAAUUAAUUUCAGGGUUUUUUGAGGCUUUUGACACAGUGGAAUUCUCGGGUGCCAA: 0.407

Set 3
Target: Transcriptional repressor CTCF (CTCF, Homo sapiens, UniProt P49711, residues 1-727, full length assumed)
Chain of UniProt P49711 (whole entry, looked up): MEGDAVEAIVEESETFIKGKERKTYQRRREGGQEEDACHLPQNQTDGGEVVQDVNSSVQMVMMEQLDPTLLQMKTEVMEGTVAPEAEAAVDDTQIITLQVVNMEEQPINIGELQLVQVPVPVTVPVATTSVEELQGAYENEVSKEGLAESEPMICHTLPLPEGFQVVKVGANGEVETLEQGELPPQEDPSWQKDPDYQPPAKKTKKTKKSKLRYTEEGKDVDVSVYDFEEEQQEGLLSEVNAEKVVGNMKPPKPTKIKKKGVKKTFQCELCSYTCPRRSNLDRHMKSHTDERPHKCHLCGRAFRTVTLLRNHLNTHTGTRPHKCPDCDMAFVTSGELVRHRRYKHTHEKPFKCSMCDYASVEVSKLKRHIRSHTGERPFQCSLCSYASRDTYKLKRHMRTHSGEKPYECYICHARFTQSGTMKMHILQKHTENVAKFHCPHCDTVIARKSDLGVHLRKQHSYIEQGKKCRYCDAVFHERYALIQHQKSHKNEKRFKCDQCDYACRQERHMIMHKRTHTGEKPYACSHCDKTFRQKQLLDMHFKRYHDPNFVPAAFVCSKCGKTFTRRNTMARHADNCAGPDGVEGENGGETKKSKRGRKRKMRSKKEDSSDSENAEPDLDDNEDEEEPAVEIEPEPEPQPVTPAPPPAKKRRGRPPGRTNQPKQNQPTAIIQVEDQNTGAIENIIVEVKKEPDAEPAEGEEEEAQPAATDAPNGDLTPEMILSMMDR
Technique: protein-binding microarray
Molecule type: double-stranded DNA, one strand shown
Matrix: in vitro
Concentration: not given
Notes: k-mer, scored over probes, only values ≥0.25
Direction: higher = stronger binding
Quantity: E-score
AGTTTATA: 0.327
ATGTGCGC: 0.368
AATACAAG: 0.276
GCGACGTA: 0.28
ATTAATAC: 0.321
TACTACAA: 0.315
ACACATAT: 0.267
AGTATACC: 0.304
ATACAATA: 0.265
ATTTAACC: 0.252
ATGTGTTA: 0.309
GCGCATAA: 0.371
CATCACCA: 0.278
ATAATGTA: 0.361
ATAGCGCC: 0.393
ATATAATC: 0.295
AATATAAA: 0.337

Set 4
Target: RING finger protein unkempt homolog, zinc fingers 1-6, GST-SBP tag (UNK, Homo sapiens, UniProt Q9C0B0, residues 30-357)
Technique: RNA Bind-n-Seq
Molecule type: RNA
Matrix: in vitro
Concentration: not given
Notes: RNA with constant flanks, human-mouse chimeric sites, ends assumed
Relative to: input RNA pool
Direction: higher = stronger binding
Quantity: bound/input enrichment
Target sequence (chain): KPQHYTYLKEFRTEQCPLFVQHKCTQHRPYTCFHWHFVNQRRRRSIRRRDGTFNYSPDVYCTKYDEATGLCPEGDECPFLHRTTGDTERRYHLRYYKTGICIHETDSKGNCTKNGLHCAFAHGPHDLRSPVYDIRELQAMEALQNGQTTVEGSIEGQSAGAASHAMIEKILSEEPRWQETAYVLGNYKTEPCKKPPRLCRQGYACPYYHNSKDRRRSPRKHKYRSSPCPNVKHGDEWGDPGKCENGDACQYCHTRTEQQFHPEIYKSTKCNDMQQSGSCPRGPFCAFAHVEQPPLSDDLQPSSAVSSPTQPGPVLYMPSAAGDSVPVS
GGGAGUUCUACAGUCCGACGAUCUUCAAAGAAAAGGGCAGCUGUGUCAUUUCAUAAGUAACUCUGGGGGAUAAGUGGAAGGUUCUUUUGUUUAAUUUUCCCCCAAAUGAAGCCAAAGUGUGUGUUGAAGAACUGAGAAAAAAUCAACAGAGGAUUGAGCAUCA: 0.195 ratio
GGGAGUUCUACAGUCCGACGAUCUAAGUCCUGUGCCAGCACUUCGCUCAUUAUAUUUUAAAUUCUGGACCAAUAGUGUUUGUUUCCUGAUUAUUGUAUCCAAUACUUUGCCUAGUAUGUAACUCACUCUUACUGAUAAUAAAACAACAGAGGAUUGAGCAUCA: 4.94 ratio
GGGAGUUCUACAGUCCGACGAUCAGAGAUAAAGCAUCUAGGAACAUGCGAGGCUCCCGGAUGAAUGGGUUUCCAAGUCCCACUCACAGCGCCCACUGUAGCUUCUACCGAACCAGAACCUUGCAGGCACUGAGUAAUGAGAAGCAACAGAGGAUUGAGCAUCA: 0.0755 ratio
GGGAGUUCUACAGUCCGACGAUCAAAGAACCUCUCUCUGAUGAAGAUGAGGACAGUGAUGAUGAUGUUGAACCCAUUUCUGAAUUUCGAUUUGUGCCCAGUGAUAAGUCAGCAUUGGAGGCAAUGUUCACAGCAAUGUGUGAGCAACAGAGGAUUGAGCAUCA: 0.182 ratio
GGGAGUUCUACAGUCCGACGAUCAACUUCGUGCAUCGGUUUCCUUUUGUAGCUGUUUCAAUUGGCUUCCUUGUGAAUAAAGAGAUGGAGUUUGGAAUUGUGUACAGCUGUGUGGAAGAUAAGAUGUACACCGGCAGGAAAGGGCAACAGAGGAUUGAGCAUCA: 0.487 ratio
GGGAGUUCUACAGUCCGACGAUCCUGGCACUCUAUCAGAUAGAUUACUUUUUUAAUGUAGAUGUAAUUUUAAAAAUGAAUGGCUACUUUACACGUUUAACUAGGCUCUUACUAUAUAUGUGUACAUAUGUAUAUAUAUAUAUACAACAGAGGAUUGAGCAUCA: 13.3 ratio
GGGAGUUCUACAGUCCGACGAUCGGCUGCUGGUGACUGUCGGGAGCCGUCUGGAGUUCCCGCCGGAGCGCGGCCAGACUAAUUAUAGAAAAUGCCAAGUAGGAAGUUUGUUGAGGGUGAAGUGGUCAGAGGCCGAUGGCCUGGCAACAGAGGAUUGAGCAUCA: 2.04 ratio
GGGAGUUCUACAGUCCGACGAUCCAGCCUCAGAGCCCAGACUUCCUGGAUAUUACCAACCCCAAAGCCGUAUUAGAAAAUGCAUUGAGAAACUUCGCCUGUCUGACGACUGGGGAUGUGAUUGCUAUCAACUACAAUGAGAAGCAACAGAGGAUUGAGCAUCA: 0.498 ratio
